Measured values of several laboratories.
Numbered parts are unrelated; each lists some results of a single study. Substitutions count along the parent as printed.

Sample 1 — target: CCNE1, cyclin fold, Cln2 fusion (human); technique: yeast growth competition, sequencing; matrix: yeast; setting: strong parent motif; relative to: not given; direction: higher = stronger binding; endpoint: normalised enrichment score
Parent: CDC25A docking peptide (human); PPHRRRLLFACSP
Change = PPHKRRLLFACSP [R4K]; value = 1.96
Change = PPHRRRLLCACSP [F9C]; value = 0.56
Change = PPHRRRLLFACNP [S12N]; value = 1.54
Change = PPDRRRLLFACSP [H3D]; value = 1.13

Sample 2 — technique: universal PBM; molecule type: double-stranded DNA, one strand shown; matrix: in vitro; concentration: not given; direction: higher = stronger binding; endpoint: E-score
Target: Sal-like protein 4, full length isoform B (SALL4, Homo sapiens, UniProt Q9UJQ4-2, residues 1-616)
Setting: 8-mer, flanks averaged, mean of replicates
Strand = AGCATCGG; value = -0.182
Strand = GTCGGAAC; value = -0.208
Strand = CGCGATAA; value = 0.0456
Strand = ACTTAGAT; value = 0.1
Strand = CCGACCGA; value = -0.333
Strand = AGCTGACG; value = -0.085
Strand = CACGAAGC; value = -0.192
Strand = AATCCGCG; value = -0.23

Sample 3 — technique: RNA Bind-n-Seq; molecule type: RNA; matrix: in vitro; concentration: 365 nM; relative to: no-protein control; direction: higher = stronger binding; endpoint: RBNS enrichment (R)
Target: RNA binding protein fox-1 homolog 2, RRM domain, GST-SBP tag (RBFOX2, Homo sapiens, UniProt O43251-10, residues 100-194)
Setting: natural RNA segment, single round, ends assumed
Shared flanks, not repeated: GGGAGUUCUACAGUCCGACGAUC … UGGAAUUCUCGGGUGCCAA
Residues (chain): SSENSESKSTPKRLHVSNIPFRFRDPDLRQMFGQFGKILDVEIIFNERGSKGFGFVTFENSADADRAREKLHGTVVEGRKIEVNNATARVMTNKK
Strand = GAGGUACAUUAGAGCAUGGAGGACACCUCCACAUCUUUUGAAAUCCAGGCAAGGAGACCAAAACUUUCGCUCUGUUCACUUGUGCCUCACUUUGGAAGCUUAACUUCCCA; value = 0.206
Strand = CUUCCCAUCUUCUAUGCUUAUGUCCCACUGUGCCUGCUCCCCCAUCCUCUUUCUUGUAGCCUUUUGACUCAGUGGAAUCGAAGAUACAAUUUUCCUUAGACUACCUAGUG; value = 0.967
Strand = AAAUGGGACCAAACAUAUGGAAGGGGCUGCUGUCCUGCCUCAAUUUAGCCAAGACUUGUCUUGUCUCAAAGCCAAGACUCAGCAGUACAUGGAUUCUGAGAAGUCCAGGG; value = 0.353
Strand = CGGGCAGCCCUGUGAGUUUCCUAUCUGUUCCAGACUAGUAUCGCCAAUCUCUCCCAGCUCUCUUCUUUCCUCCCUGGCCUUUGUCCUGCAGGAGGUAGCAUCACCUCUUG; value = 1.03
Strand = ACUCCUUGGGCCCAAGGGCUUUAGCAGCUGGAUAUGGGGUUCCUUGAUUUUCCUCUGGGCCCAAAUAUAGCCCUCACACUCUUGGAAUUUCCAGGUAUGGGGGUAGCCCC; value = 1.25
Strand = UGGCUGAUGCAGAGGCCUGCUAAGAGAACGUACUCUUACCUGCUGCCAGUGAGACAUCGUAUCUGUGCUUAGUCACUGAAGUGAGAACAUACUCCCGCCCCAAGGGAGGC; value = 0.878
Strand = GGCAGGCACAUCCUGGUACUGGCACAGACUGAAGAGUCUGUGUUUCUGUACCACUUGAGGUAUAUGUUUAGUUUUUUUACGUAUCUUCUAAGAAGCUCAGUUUUGCGGUU; value = 0.232
Strand = GCAACCAGCCUGAGUCGCGGUGAGGGGACGAGAGGUUGUACACACAUUGGUAGUUAUUUUGCACCAGCAGUGCCUUUCUCACUGGGGGUACUUGGACCCUCAGAUCUUCU; value = 1.1

Mixed results
Molecule = PhoQ, residues 284 288 289 292 302 303 TSTLRA; target = PhoP, residues 12 14 15 18 19 SEGLL (Escherichia coli, UniProt P23836); test = Sort-seq, item: YFP reporter; test system = E. coli; setting = PhoQ-PhoP variant library, added: 10 µM Mg2+; scale = relative to: high Mg2+ state, higher = stronger signaling; endpoint = fold induction; value = 1.3

A few entries again (sample 3):
Strand = ACUCCUUGGGCCCAAGGGCUUUAGCAGCUGGAUAUGGGGUUCCUUGAUUUUCCUCUGGGCCCAAAUAUAGCCCUCACACUCUUGGAAUUUCCAGGUAUGGGGGUAGCCCC; value = 1.25
Strand = UGGCUGAUGCAGAGGCCUGCUAAGAGAACGUACUCUUACCUGCUGCCAGUGAGACAUCGUAUCUGUGCUUAGUCACUGAAGUGAGAACAUACUCCCGCCCCAAGGGAGGC; value = 0.878
Strand = GGCAGGCACAUCCUGGUACUGGCACAGACUGAAGAGUCUGUGUUUCUGUACCACUUGAGGUAUAUGUUUAGUUUUUUUACGUAUCUUCUAAGAAGCUCAGUUUUGCGGUU; value = 0.232
